Measured values pooled from the literature.
Numbered parts are unrelated; each lists some results of a single study. “And” joins repeats or separate records; there may be more than shown.

Sample 1 — method: competition with immobilised ligand; concentration: 1 µM
Structure (SMILES): Cc1c(NC(=O)c2cc(C(N)=O)nc3cc(F)ccc23)c(C(F)(F)F)nn1Cc1ccc(C#N)cc1
target | effect on | remaining binding [%]
CLK1 (Homo sapiens, UniProt P49759) | cell-free assay | 86
PIK3CD (Homo sapiens, UniProt O00329) | cell-free assay | 66
KIT (Homo sapiens, UniProt P10721, L576P) | cell-free assay | 92
DCLK3 (Homo sapiens, UniProt Q9C098) | cell-free assay | 92
CILK1 (Homo sapiens, UniProt Q9UPZ9) | binding | 100
PIK3C2B (Homo sapiens, UniProt O00750) | cell-free assay | 81
ERBB3 (Homo sapiens, UniProt P21860) | cell-free assay | 92
RAF1 (Homo sapiens, UniProt P04049) | cell-free assay | 86
LATS2 (Homo sapiens, UniProt Q9NRM7) | cell-free assay | 72
EGFR (Homo sapiens, UniProt P00533, G719S) | cell-free assay | 86
Ribosomal protein S6 kinase alpha-3, N-terminal kinase domain (RPS6KA3, Homo sapiens, UniProt P51812) | cell-free assay | 82
EGFR (Homo sapiens, UniProt P00533, L861Q) | cell-free assay | 67
KIT (Homo sapiens, UniProt P10721) | cell-free assay | 95
TAOK1 (Homo sapiens, UniProt Q7L7X3) | cell-free assay | 93
PLK2 (Homo sapiens, UniProt Q9NYY3) | cell-free assay | 78
MET (Homo sapiens, UniProt P08581) | cell-free assay | 100
PRKG1 (Homo sapiens, UniProt Q13976) | cell-free assay | 100
HIPK1 (Homo sapiens, UniProt Q86Z02) | cell-free assay | 73
KIT (Homo sapiens, UniProt P10721, D816V) | cell-free assay | 88
Tyrosine-protein kinase ABL1, phosphorylated (ABL1, Homo sapiens, UniProt P00519, Q252H) | cell-free assay | 81
FGFR2 (Homo sapiens, UniProt P21802) | cell-free assay | 88
CAMK2A (Homo sapiens, UniProt Q9UQM7) | cell-free assay | 100
NTRK2 (Homo sapiens, UniProt Q16620) | cell-free assay | 54
Tyrosine-protein kinase ABL1, phosphorylated (ABL1, Homo sapiens, UniProt P00519, M351T) | cell-free assay | 87
EPHA5 (Homo sapiens, UniProt P54756) | cell-free assay | 100

Sample 2 — Compound: CC(C)CN(C)c1nc(N)c(C(=O)N=C(N)N)nc1Cl; effect on: β-arrestin recruitment; action: agonist; method: PRESTO-Tango; concentration: 10 µM; relative to: untreated
target | fold over basal
MC1R (Homo sapiens, UniProt Q01726) | 0.92
GPR37 (Homo sapiens, UniProt O15354) | 1.19
NTSR2 (Homo sapiens, UniProt O95665) | 1.12
GHRHR (Homo sapiens, UniProt Q02643) | 0.6 fold
Melatonin-related receptor (GPR50, Homo sapiens, UniProt Q13585) | 0.72
GPR183 (Homo sapiens, UniProt P32249) | 1.16
CRHR1 (Homo sapiens, UniProt P34998) | 1.52
Motilin receptor (MLNR, Homo sapiens, UniProt O43193) | 0.86
Lysophosphatidic acid receptor 6 (Homo sapiens, UniProt P43657) | 0.85
MC2R (Homo sapiens, UniProt Q01718) | 1.2
Probable G-protein coupled receptor 156 (GPR156, Homo sapiens, UniProt Q8NFN8) | 1.05
LTB4R (Homo sapiens, UniProt Q15722) | 0.7
HCAR2 (Homo sapiens, UniProt Q8TDS4) | 0.86 fold
Adhesion G protein-coupled receptor L4 (ADGRL4, Homo sapiens, UniProt Q9HBW9) | 1.06
HCAR1 (Homo sapiens, UniProt Q9BXC0) | 1.24 fold
Probable G-protein coupled receptor 27 (Homo sapiens, UniProt Q9NS67) | 0.91
CXCR3 (Homo sapiens, UniProt P49682) | 0.85

Sample 3 — action: degrader; time: 24 h
Compound: C[C@@H]1CN(c2ccc(-c3cc(C(=O)NCCOCCOCCOCCOCCOCCOCCOCCOCCOCCNC(=O)/C=C/c4[nH]cc(C(=O)N[C@@H](CC(N)=O)c5ccc(F)c(Cl)c5)c4-c4ccc(Cl)cc4F)ccc3F)cc2NC(=O)c2c[nH]c(=O)cc2C(F)(F)F)C[C@H](C)N1C
WDR5: WD repeat-containing protein 5 (WDR5, Homo sapiens, UniProt P61964)
WDR5/DCAF1: WDR5/DCAF1 (Homo sapiens, UniProt P61964+Q9Y4B6)
target | method | refers to | concentration | relative to | remaining protein level
WDR5 | Jess capillary immunoassay | WDR5 over vinculin | 25.7 nM | DMSO | 78.3% and 84.1% and 78.6%
WDR5/DCAF1 | HiBiT luminescence | – | 227 nM | – | 38.7% and 44.6% and 37.6% and 38.1%
WDR5 | Jess capillary immunoassay | WDR5 over vinculin | 2 nM | DMSO | 96.9% and 112% and 101%
WDR5/DCAF1 | HiBiT luminescence | – | 10000 nM | – | 40.7% and 41.5% and 38.6% and 36.6%
WDR5 | Jess capillary immunoassay | WDR5 over vinculin | 10000 nM | DMSO | 64.7% and 39.9% and 48.2%
WDR5 | Jess capillary immunoassay | WDR5 over vinculin | 60.3 nM | DMSO | 64.8% and 60.7% and 74.9%
WDR5/DCAF1 | HiBiT luminescence | – | 585 nM | – | 29.5% and 28.1% and 26.3% and 34.1%

Sample 4 — action: inhibitor; concentration: 10 µM; relative to: control
Target: Diamine acetyltransferase 1 (Homo sapiens, UniProt P21673)
Construct (P21673 1-171): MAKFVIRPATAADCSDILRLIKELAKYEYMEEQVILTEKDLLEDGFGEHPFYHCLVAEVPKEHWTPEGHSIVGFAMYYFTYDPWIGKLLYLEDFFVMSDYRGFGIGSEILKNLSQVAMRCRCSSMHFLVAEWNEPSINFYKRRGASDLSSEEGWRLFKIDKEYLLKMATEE
Compound | remaining activity
CCCCCCCCCCCCCCCCCCCCCCCCCCO | 77.5%
C[C@]12CC[C@@H]3c4ccc(O)cc4CC[C@H]3[C@@H]1C[C@@H](O)[C@@H]2O | 105%
OCC(O)c1ccccc1 (stereo not shown) | 108%
O=C1c2c(O)cc(O)cc2O[C@@H](c2ccc(O)cc2)[C@H]1[C@@H]1C(=O)c2c(O)cc(O)cc2O[C@@H]1c1ccc(O)cc1 | 99.1%
CCCCCCCCCCCCCCCC(=O)OCC | 121%
O=C(O)c1cccnc1 | 97.3%
CC(=O)O[C@H]1C[C@H]2CC[C@]1(C)C2(C)C | 83.4%
C=C(C)[C@@H]1CC=C(/C=N/O)CC1 | 101%
O=C(O[C@@H]1Cc2c(O)cc(O)cc2O[C@@H]1c1ccc(O)c(O)c1)c1cc(O)c(O)c(O)c1 | 76.7%
CC1=CCC(=O)O1 | 97.5%
COC(=O)C1=CO[C@@H](O[C@@H]2O[C@H](CO)[C@@H](O)[C@H](O)[C@H]2O)[C@H]2[C@@H]1C(=O)C[C@@H]2C | 85.5%
O=c1c2ccccc2nc2n1CCc1c-2[nH]c2ccccc12 | 104%
CCCCCCCC(=O)OC | 82.8%
COc1cc(C=CC(=O)O)cc(OC)c1O | 103%
C[C@@H]1O[C@@H](O[C@H]2[C@H](OC(=O)[C@]34CCC(C)(C)C[C@H]3C3=CC[C@@H]5[C@@]6(C)C[C@H](O)[C@H](O[C@@H]7O[C@H](CO)[C@@H](O)[C@H](O[C@@H]8O[C@H](CO)[C@@H](O)[C@H](O)[C@H]8O)[C@H]7O)C(CO)(CO)[C@@H]6CC[C@@]5(C)[C@]3(C)C[C@H]4O)OC[C@H](O)[C@@H]2O)[C@H](O)[C@H](O)[C@H]1O[C@@H]1OC[C@@H](O)[C@H](O[C@@H]2OC[C@](O)(CO)[C@H]2O)[C@H]1O | 99.5%
